Experimental data from different studies.
Parts stem from different laboratories: compare values within a part only.

Block 1
Target: Histone acetyltransferase KAT6A, winged helix 2, GST fusion (KAT6A, Homo sapiens, UniProt Q92794, residues 85-181)
Technique: protein binding microarray
Molecule type: double-stranded DNA, one strand shown
Sample: in vitro
Tested at: not given
Notes: 8-mer, flanks averaged, mean of 2 arrays, mostly near background
Reference: not given
Direction: higher = stronger binding
Construct (chain): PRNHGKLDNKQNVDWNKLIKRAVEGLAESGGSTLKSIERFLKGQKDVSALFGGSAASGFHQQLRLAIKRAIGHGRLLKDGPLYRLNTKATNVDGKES
| Strand | E-score |
| --- | --- |
| CTTTGCAC | 0.0389 |
| CAGAGAGC | 0.0328 |
| AATAGCTG | -0.00869 |
| AAATGTAA | -0.0436 |
| CTTTCACA | 0.127 |
| AGCCATAA | -0.0298 |
| ACACCTTA | 0.00475 |
| GAATCCCA | 0.0104 |
| CTTGATTA | -0.0367 |
| TCAGACCA | -0.0616 |
| ACTCTGCC | -0.0191 |
| CTGACCTC | -0.00572 |
| AGCGCAAA | 0.16 |
| ACTCTTAA | -0.188 |
| GTAATGAA | -0.0695 |
| CGAGGAGA | -0.2 |
| ACAGCAGC | 0.0805 |
| CATCCACA | 0.0493 |
| AACGATAC | -0.0214 |
| GGACAGTA | 0.0709 |
| AGGTCTTG | 0.132 |
| GTGTGGTA | -0.0921 |
| TAGAAGGA | -0.099 |
| AAGATTCG | 0.0648 |
| ACCCGATC | -0.0707 |

Block 2
Target: Sal-like protein 4, full length isoform B (SALL4, Homo sapiens, UniProt Q9UJQ4-2, residues 1-616)
Technique: universal PBM
Molecule type: double-stranded DNA, one strand shown
Sample: in vitro
Tested at: not given
Notes: 8-mer, flanks averaged, mean of replicates
Direction: higher = stronger binding
| Strand | E-score |
| --- | --- |
| AAGGACCT | 0.00218 |
| GTCGGACA | -0.0787 |
| CGCAATAA | 0.186 |
| CCCCTTGA | -0.0827 |
| CAAATGGC | -0.0347 |
| AATTAACG | 0.226 |
| ACACCAAG | 0.0842 |
| CTGCGATC | -0.127 |
| CGACAGAA | -0.033 |
| AGTCATCA | -0.0415 |
| ATTAGTAC | 0.239 |
| AGCGATCG | -0.138 |
| CCGACAAC | -0.151 |
| CACCACGA | 0.0252 |
| GCGTGCCA | -0.314 |
| CGCCAGTC | -0.199 |
| GCATACGA | -0.018 |
| GCGTATGA | 0.0943 |
| ACGTTTCG | -0.00011 |
| ACCTCTAG | 0.0683 |
| ACTGGGGG | -0.23 |
| CCATCTAC | 0.0484 |
| ATAGGGAC | -0.0497 |
| ATAGGTCG | -0.012 |
| ACACCCTA | 0.0438 |

Block 3
Target: RNA binding protein fox-1 homolog 2, RRM domain, GST-SBP tag (RBFOX2, Homo sapiens, UniProt O43251-10, residues 100-194)
Technique: RNA Bind-n-Seq
Molecule type: RNA
Sample: in vitro
Tested at: 365 nM
Notes: natural RNA segment, single round, ends assumed
Reference: no-protein control
Direction: higher = stronger binding
All sequences stand within: GGGAGUUCUACAGUCCGACGAUC … UGGAAUUCUCGGGUGCCAA
Construct (chain): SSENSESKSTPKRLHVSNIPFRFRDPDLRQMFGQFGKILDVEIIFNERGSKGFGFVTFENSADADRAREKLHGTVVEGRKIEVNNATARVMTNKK
| Strand | RBNS enrichment (R) |
| --- | --- |
| UUUUUUUUUGAAAGAGUUCUCCUCAUAGGAGGAUGAUUCAGCAUCAGAAGAAGAAGGAACCCAUAGCUUGGUGUCAUUAACAUAAUUAUUUUAAGCCUUAUCCAGCAGCC | 0.414 |
| GAAUGGUUUAAAAAGAUUGCAUUGUUACAAAGCUAGAAAAAAUUUAUGUAUGAAAAAUGAUCCUAGCCUUACACUGAGUACAAUAAUACUUAUAAGCAUGUGAAGAUGUG | 16.7 |
| AUUCAGCAUCUGAGGGCUGCAAGUACAGAAGGAAUCUAUUCUCAGCAGGGCAUAGGGCACGCACUGGCUUAACAGUUUAGUAUAUAAGGCUCAAAUAGUCUAUACCUGAA | 0.309 |
| GAUGUCUGUCUCCUUGCGUGUAGAUCCCAAAAGUGCUCUUCAGGGGUUCUGUGCUAGCUGAUGCAAGGACAUUAGCUCCAAAGGCUGGGGAGGGCUUGGCUCUCCCUCUG | 0.303 |
| AACUAUGCAUUUUUGUCUGAAAGUAGGCACUGAAGCAUUGAAGUAAGGUAAGGAGACAUCCUCUUCGACACCGCUGUUGACCGAGGAGCUCAGGGCCACUUUGAGUGUGA | 0.359 |
| AAAUCCAGCUUUUGUUUGCCAGCCAAAUAGGGAGAGAUGCUCAAAGAAGCUUCAAGAAAGCACUGGGUUGUAGGUGUUAAAAUAUCCUCUAGUGAUGUUCACCACUUUUA | 0.488 |
| UGGAGCUGGCUCCCGGACCUUGCCCACCAUCCAUGCAGUGGCUCCCAGGGCAGAGCCUCUCCUUGUACUUUGGCAGCCAUAGAAAGCGUGCUCAUUUUCUGUUUUCCUGU | 0.922 |
| AAAGAUGGAUGUGAUAGUCUAUAUUUGUGUGUUUCUAAAGUUGUGUCUUGUGGGGGAAUUGGAUUCCAUUUUAGUUAUUUAAUACCUCACUCCCACCCACCUGCAUACUG | 0.293 |
| UGCAGGUCAGGGAAGGUUCUGGUGCUUUUCGUUUGAUCCAAAAGGAGCUGAGAGCCAGAAAUGUGGCUGUGAUUGCGAAAGAGACGGAGUUUGGGAGACCCAUGGAAGAA | 1.09 |
| UGCAGGAGACAGGCAGGAUCAGUUGUGGUAAUGAUGCCUGUGGCAAACACAAACACCUACUUGGGCUGCACACAGUCACACAAUCAAUCUAUAAUUCUUGGGGUUAGCUC | 0.704 |
| AAGGGGAUCUGAGAAAUUAUGUAAUAGGGAGUGGGAAUAAAACUACUUAAUUCCUGUGGGCAGGUUAUAUUUUAAGUUCAAAUGCAUUGCUUUAACCUUUGGUUACUUUU | 1.42 |
| UGAACUAACGUAUUCAAUAUUGAAUAUGUAGAUAUCAGUAGUCAAGUAGGAUAUUUCUUUAGAUUGCCACUUUUUUUAUUCCAGUUGUUUUAGGAAUAAAUGUCAGAUUU | 0.5 |

Block 4
Target: Interferon regulatory factor 3, full length, phosphomimetic (IRF3, Homo sapiens, UniProt Q14653, residues 1-427, S386D/S396D/S398D/S402D/T404D/S405D)
Chain of UniProt Q14653 (whole entry, unmodified, looked up): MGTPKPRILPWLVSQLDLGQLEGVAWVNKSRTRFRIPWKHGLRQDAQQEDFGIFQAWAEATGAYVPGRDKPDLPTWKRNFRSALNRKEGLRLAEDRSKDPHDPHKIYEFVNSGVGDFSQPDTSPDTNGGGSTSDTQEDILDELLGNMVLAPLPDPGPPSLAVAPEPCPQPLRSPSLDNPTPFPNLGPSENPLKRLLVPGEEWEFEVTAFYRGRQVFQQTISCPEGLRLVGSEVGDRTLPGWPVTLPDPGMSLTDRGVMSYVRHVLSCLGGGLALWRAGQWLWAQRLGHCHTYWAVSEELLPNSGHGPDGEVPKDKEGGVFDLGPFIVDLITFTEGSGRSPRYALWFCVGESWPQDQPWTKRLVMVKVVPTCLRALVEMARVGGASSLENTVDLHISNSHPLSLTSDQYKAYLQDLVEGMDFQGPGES
Technique: protein-binding microarray
Molecule type: double-stranded DNA, one strand shown
Sample: in vitro
Tested at: 2540 nM top
Notes: 60-bp whole probe
With: salmon DNA 0.4 mg/ml
Reference: random background probes
Direction: higher = stronger binding
All sequences stand within: GCCTAGCAC … GTCTTGATTCGCTTGACGCTGCTG
| Strand | fitted relative affinity |
| --- | --- |
| TTAGATTTCGGGACGGGATTAGTGCTA | 0.882 z-score |
| GACGATCTTAGTCTCGAGACGTGCTAG | 0.522 z-score |
| TCAAGTTTGTATATATTACTGTGCTAG | 0.0776 z-score |
| TTAGCTTTCGGGTATCGATTAGTGCTA | 1.75 z-score |
| GGTCCAACAAACAGATCCATGTGCTAG | 0.279 z-score |
| TTAGGACTGGGGTTCGGTTAGTGCTAG | -0.702 z-score |
| TTAGGTTTCCTTATCCTTAAGTGCTAG | 8.5 z-score |
| TTAGGACTGGACACTGAGTTAGTGCTA | -0.653 z-score |
| GACGGTCTTGGACTGGGGACGTGCTAG | -0.51 z-score |
| GACGAGTTCGGGTTTCGAGACGTGCTA | 0.861 z-score |
| GACGGTCTGGACACTGGGGACGTGCTA | -0.538 z-score |
| TTAGGTTTCGGGGCTGGGTTAGTGCTA | 2.4 z-score |
| TTAGGACTGCTTATCCTTTCGTGCTAG | 0.48 z-score |
| TCAGTTTTACAGGTTCTCACTGTGCTA | 1.05 z-score |
| GACGGTTTCGTACTGGGGACGTGCTAG | 4.19 z-score |
| GCCGATATCGGGTATCGAGACGTGCTA | 0.796 z-score |
| GACGGTTTCGGTCTCGGGAAGTGCTAG | 8.71 z-score |
| TTACGACTGGGGTTTCGGTTAGTGCTA | 2.65 z-score |
| TTAGAACTGATTTTCGATTAGTGCTAG | 0.9 z-score |
| GACGAACTGAGTCTCGAGCCGTGCTAG | -0.398 z-score |

Block 5
Target: Ras GTPase-activating protein-binding protein 1, C-terminal RGG region (G3BP1, Homo sapiens, UniProt Q13283)
Chain of UniProt Q13283 (whole entry, looked up): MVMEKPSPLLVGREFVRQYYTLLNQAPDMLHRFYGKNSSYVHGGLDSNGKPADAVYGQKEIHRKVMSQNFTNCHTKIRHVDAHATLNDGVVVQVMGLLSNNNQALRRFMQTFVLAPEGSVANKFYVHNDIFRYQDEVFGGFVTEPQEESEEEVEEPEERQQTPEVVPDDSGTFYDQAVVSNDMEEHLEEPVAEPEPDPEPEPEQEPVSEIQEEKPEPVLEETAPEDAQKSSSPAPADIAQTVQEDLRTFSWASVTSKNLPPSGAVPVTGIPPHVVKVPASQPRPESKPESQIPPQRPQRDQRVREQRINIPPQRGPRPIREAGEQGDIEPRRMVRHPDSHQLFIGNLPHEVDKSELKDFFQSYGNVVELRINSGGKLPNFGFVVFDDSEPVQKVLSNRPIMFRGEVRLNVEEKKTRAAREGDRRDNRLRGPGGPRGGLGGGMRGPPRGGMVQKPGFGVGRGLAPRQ
Technique: RNA Bind-n-Seq
Molecule type: RNA
Sample: in vitro
Tested at: 1 µM
Notes: whole 134-nt RNA, ends assumed
With: 150 mM KCl
Reference: input library
Direction: higher = stronger binding
All sequences stand within: GGGAGUUCUACAGUCCGACGAUC … UGGAAUUCUCGGGUGUCAAGG
| Strand | log2 enrichment |
| --- | --- |
| CAAGUCCUGUGCUACACAUCGUAUGUACCGAAUCGGGAAAAAGGGAGGGAAAGGGAAAGUAUUAUGUUACGCCGUUCGGAUCUGCACUUC | 1.77 |
| ACCAUGCAGGUGGGCAUCUUUGGGAAGUGGGGCAAGGGAAAGAUAGGGAGGGGGGUAACACUUUGGGAACAGGUGGUCCCAGGUCGUUUC | -1.2 |
| AAGUCCUGUGCUACACAUCGUAUGUACCGAAUCGGCCCCGGCCCCGGGCCCCGGGGAAAGUAUUAUGUUACGCCGUUCGGAUCUGCACUU | -2.08 |
| AGUCCUGUGCUACACAUCGUAUGUACCGAAUCGGGUUUUUGGGUUUUUGGUUUUUGGGAAAGUAUUAUGUUACGCCGUUCGGAUCUGCAC | -1.57 |
| UGGGAGGUGGAUUUUGUUUAUUUUUUUUGCUCAUUUCCAGGGGUGGGAAUUUUUUUUUAAUAUGUGUCAUGAAUAAAGUUGUUUUUGAAA | 3.33 |
| GUCCUGUGCUACACAUCGUAUGUACCGAAUCGGGGCCCCGGGGCCCCGGGCCCCGGGGAAAGUAUUAUGUUACGCCGUUCGGAUCUGCAC | -2.48 |
| CCUGUGCUACACAUCGUAUGUACCGAAUCGGCCCCCCCGGCCCCCCCGGGCCCCCCCGGGGAAAGUAUUAUGUUACGCCGUUCGGAUCUG | -1.75 |
| CAAGUCCUGUGCUACACAUCGUAUGUACCGAAUCGGUUUUGGUUUUGGUUUUGGGAAAGUAUUAUGUUACGCCGUUCGGAUCUGCACUUC | -1.72 |
| CAAGUCCUGUGCUACACAUCGUAUGUACCGAAUCGGAAAAGGAAAAGGAAAAGGGAAAGUAUUAUGUUACGCCGUUCGGAUCUGCACUUC | -1.87 |
| UAACUUUAGAGGAGGAUCUGAUGGAUAUGGCAGUGGACGUGGAUUUGGGGAUGGCUAUGAUGGGUAUGGAGGAGGACCUGGAGGUGGCAA | -1.12 |
| CCUGUGCUACACAUCGUAUGUACCGAAUCAAAUUUUUUUAAACCCCCAAAUUUUUUUAAAAAAGUAUUAUGUUACGCCGUUCGGAUCUGC | -1.11 |
| CACAGACAACACGCACCCACACAGACGCAGAGGGAAGGGGUUGGGAUGGGGACAGGGUGCACAGCAGGGCGGGGUAGGACCCCAGCCCCU | -0.0804 |
| CAAGUCCUGUGCUACACAUCGUAUGUACCGAAUCGGGAAAGGGUGGGAAAAAGGGAAAGUAUUAUGUUACGCCGUUCGGAUCUGCACUUC | 1.57 |
| UUGUGGAAAACCCACAUGCUCCUCAGAAAGAUGAUGCCCUGGUGAUCACACACUACAACCGGACCCGACAGCAGGAAGAGAUGCUGGGGC | -0.718 |

Excerpt of the above (block 1):
| Strand | E-score |
| --- | --- |
| AGCCATAA | -0.0298 |
| AAGATTCG | 0.0648 |
| TCAGACCA | -0.0616 |
| ACCCGATC | -0.0707 |
| AGCGCAAA | 0.16 |
| TAGAAGGA | -0.099 |
| CAGAGAGC | 0.0328 |
| GTGTGGTA | -0.0921 |
| ACAGCAGC | 0.0805 |
| ACTCTGCC | -0.0191 |
| CTGACCTC | -0.00572 |
| GTAATGAA | -0.0695 |
| CGAGGAGA | -0.2 |
| ACTCTTAA | -0.188 |
| CTTGATTA | -0.0367 |
| AGGTCTTG | 0.132 |
